Experimental data from different studies.
A part holds a random share of what one study measured. Changes are numbered by the printed parent chain.

Set 1
Target: Histone acetyltransferase KAT6A, winged helix 1, GST fusion (KAT6A, Homo sapiens, UniProt Q92794, residues 1-85)
Method: protein binding microarray
Form: double-stranded DNA, one strand shown
Matrix: in vitro
Concentration: not given
Setting: 8-mer, flanks averaged, mean of 2 arrays, mostly near background
Baseline: not given
Direction: higher = stronger binding
Quantity: E-score
Residues (chain): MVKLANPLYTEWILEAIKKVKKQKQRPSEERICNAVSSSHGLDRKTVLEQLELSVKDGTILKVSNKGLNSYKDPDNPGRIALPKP
CGCCACAG: -0.0871
ATGCCAGC: -0.0154
TCTGGTAA: -0.118
CTTTTGTC: -0.00961
AGGGCCAC: -0.128
ACGAATAT: -0.128
AACCTCAG: -0.0944
AGTTCCTC: -0.0529
ATGGGGGG: -0.211
CAAGTTTC: 0.00183
AAATGAGA: -0.225

Set 2
Target: CCND3, cyclin fold, Cln2 fusion (human)
Method: yeast growth competition, sequencing
Matrix: yeast
Setting: weak parent motif
Baseline: not given
Direction: higher = stronger binding
Quantity: normalised enrichment score
Starting sequence: PKN2 docking peptide (human); VSAVQKLDFSDTM; partner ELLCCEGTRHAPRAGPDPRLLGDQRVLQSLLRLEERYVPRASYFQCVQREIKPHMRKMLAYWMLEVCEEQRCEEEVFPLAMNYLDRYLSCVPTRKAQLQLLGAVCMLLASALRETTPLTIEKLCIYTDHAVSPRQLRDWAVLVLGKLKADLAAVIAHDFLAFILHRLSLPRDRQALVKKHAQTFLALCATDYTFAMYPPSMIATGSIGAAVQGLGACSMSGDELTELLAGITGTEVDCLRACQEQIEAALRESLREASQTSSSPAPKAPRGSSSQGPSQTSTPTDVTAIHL
S2A: 0.157
D11H: 0.142
S2F: 0.0641
D11I: 0.0361
T12P: 0.221
F9W: 0.0882
K6F: 0.122

Set 3
Target: ABI1, truncated, D143A, DHFR fusion (Arabidopsis thaliana)
Method: DHFR PCA, deep sequencing
Matrix: yeast
Setting: methotrexate growth selection, single substitutions
Added: (+)-ABA 2500 µM
Baseline: wild-type fitted maximum
Direction: higher = stronger binding
Quantity: relative binding score
Starting sequence: PYL1, truncated, DHFR fusion (Arabidopsis thaliana); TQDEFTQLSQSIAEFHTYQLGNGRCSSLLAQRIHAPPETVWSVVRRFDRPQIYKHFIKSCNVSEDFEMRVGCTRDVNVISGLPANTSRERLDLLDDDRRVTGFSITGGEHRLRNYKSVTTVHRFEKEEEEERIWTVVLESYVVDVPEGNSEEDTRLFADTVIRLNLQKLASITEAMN; partner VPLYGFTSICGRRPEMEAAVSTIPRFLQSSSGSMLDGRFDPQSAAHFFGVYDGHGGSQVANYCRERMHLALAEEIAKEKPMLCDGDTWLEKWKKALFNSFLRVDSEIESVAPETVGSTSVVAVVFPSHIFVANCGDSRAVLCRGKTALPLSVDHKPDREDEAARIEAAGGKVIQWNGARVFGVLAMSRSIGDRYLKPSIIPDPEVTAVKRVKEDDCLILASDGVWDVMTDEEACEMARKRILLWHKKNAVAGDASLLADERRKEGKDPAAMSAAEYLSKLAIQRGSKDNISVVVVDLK
R123S: 104%
R99M: 106%
R98H: 109%
R113M: 105%
E129W: 93.4%
I33P: -16.5%

Further values, each from its own experiment
PhoQ, residues 284 288 289 292 302 303 SLANIV  fold induction (PhoP, residues 12 14 15 18 19 LHSVQ (Escherichia coli, UniProt P23836); Sort-seq, refers to: YFP reporter; E. coli; PhoQ-PhoP variant library, added: 10 µM Mg2+; baseline: high Mg2+ state, higher = stronger signaling): 16.3

Excerpt of the above (set 1):
ACGAATAT: -0.128
AACCTCAG: -0.0944
AGTTCCTC: -0.0529
ATGGGGGG: -0.211
